Experimental data collected from several papers.
A part holds a random share of what one study measured.
Sequence of UniProt P49137 (whole entry, looked up): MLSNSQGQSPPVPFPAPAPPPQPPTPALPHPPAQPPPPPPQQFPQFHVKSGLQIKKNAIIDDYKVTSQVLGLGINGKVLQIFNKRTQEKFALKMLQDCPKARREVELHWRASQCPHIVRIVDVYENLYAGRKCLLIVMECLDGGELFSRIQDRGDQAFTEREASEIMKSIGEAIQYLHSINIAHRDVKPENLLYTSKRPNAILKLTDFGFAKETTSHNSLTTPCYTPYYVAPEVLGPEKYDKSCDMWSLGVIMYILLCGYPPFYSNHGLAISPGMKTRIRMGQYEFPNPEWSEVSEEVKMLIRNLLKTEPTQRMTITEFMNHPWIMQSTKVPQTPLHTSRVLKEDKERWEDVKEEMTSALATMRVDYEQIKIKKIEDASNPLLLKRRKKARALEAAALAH
Sequence of UniProt O96013 (whole entry, looked up): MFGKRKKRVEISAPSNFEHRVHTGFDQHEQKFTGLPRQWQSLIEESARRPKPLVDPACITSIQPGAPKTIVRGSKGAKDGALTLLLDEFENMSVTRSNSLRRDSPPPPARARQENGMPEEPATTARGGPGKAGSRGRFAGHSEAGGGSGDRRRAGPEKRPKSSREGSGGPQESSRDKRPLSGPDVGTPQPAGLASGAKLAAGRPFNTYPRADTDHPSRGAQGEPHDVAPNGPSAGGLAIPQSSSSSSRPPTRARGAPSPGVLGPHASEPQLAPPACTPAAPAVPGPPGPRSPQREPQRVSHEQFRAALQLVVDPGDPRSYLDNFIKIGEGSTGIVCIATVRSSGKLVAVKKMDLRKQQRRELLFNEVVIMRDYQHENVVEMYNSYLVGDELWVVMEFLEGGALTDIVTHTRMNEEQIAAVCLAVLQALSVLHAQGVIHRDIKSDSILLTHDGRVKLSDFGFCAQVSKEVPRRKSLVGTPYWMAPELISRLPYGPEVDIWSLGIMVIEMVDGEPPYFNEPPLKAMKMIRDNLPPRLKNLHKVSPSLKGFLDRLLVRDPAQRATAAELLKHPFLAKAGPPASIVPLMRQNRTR
Sequence of UniProt P28335 (whole entry, looked up): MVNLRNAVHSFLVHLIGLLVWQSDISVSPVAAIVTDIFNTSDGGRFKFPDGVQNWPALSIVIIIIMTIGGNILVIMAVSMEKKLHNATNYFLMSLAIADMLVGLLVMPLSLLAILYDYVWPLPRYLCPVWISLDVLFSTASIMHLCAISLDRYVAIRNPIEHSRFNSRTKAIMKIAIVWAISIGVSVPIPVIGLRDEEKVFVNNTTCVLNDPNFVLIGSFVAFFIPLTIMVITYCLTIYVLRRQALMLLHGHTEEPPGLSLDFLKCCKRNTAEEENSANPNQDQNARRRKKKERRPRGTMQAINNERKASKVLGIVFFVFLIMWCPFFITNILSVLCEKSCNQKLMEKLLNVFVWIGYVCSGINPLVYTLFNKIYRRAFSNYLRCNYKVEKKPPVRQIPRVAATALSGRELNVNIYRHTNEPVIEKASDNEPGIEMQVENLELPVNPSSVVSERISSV
Sequence of UniProt P41595 (whole entry, looked up): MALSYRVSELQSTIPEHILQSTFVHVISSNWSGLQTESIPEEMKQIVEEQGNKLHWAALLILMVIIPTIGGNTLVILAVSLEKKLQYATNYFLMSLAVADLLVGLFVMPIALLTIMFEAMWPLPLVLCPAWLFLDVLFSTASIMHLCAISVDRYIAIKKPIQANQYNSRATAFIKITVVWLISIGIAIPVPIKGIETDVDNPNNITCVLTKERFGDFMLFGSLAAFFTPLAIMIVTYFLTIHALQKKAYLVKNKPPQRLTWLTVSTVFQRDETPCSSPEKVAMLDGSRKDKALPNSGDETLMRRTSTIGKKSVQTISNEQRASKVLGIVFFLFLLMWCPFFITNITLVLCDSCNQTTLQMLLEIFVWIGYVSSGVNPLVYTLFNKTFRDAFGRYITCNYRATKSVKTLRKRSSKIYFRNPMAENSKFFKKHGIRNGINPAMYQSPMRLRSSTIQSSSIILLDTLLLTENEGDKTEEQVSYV
Sequence of UniProt Q9H2G2 (whole entry, looked up): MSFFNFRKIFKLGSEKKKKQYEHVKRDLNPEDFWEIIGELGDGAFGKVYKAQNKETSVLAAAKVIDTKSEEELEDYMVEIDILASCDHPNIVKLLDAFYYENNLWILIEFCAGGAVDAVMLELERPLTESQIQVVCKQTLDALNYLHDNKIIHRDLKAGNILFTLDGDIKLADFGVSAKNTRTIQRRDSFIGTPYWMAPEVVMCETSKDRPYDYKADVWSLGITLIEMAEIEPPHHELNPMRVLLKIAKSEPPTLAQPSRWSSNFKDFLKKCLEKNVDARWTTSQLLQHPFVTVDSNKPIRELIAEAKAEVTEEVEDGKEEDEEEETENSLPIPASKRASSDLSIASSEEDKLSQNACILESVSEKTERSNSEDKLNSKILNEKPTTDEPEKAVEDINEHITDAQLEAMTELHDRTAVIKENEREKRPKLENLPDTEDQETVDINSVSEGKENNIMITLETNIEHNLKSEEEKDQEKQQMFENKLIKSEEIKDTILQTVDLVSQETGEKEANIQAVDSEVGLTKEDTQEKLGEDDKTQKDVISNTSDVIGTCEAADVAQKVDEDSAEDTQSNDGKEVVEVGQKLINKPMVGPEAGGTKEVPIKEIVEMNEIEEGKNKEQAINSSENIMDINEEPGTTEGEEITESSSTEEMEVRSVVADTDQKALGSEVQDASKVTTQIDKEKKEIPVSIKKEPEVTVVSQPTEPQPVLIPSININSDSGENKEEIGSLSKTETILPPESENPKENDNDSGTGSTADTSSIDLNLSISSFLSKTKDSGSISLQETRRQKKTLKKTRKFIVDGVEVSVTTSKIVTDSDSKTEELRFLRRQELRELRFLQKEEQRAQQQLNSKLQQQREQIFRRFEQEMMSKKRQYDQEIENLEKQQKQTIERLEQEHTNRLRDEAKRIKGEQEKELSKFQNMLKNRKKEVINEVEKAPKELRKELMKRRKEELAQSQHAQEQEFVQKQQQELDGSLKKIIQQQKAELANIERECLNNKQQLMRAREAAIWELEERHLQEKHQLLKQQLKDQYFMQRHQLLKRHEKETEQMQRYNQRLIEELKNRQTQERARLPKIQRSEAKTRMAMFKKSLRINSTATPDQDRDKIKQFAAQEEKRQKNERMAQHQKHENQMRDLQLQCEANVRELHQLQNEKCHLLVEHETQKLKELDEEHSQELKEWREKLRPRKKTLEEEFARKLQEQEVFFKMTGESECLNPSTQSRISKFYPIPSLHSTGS
Sequence of UniProt Q9UBS0 (whole entry, looked up): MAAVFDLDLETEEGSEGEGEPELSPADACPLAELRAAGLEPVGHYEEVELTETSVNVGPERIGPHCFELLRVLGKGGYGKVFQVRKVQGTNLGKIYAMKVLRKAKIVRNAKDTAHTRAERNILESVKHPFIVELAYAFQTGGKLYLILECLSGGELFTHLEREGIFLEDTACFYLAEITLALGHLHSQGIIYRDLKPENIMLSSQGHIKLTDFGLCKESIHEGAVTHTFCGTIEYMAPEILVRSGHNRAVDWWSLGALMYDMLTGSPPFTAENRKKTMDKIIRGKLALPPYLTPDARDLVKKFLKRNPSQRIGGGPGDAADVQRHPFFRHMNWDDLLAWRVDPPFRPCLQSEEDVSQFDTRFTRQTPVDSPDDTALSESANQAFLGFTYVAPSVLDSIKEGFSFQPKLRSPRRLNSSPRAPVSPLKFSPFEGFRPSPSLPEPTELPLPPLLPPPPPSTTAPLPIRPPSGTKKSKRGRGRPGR
Sequence of UniProt P08913 (whole entry, looked up): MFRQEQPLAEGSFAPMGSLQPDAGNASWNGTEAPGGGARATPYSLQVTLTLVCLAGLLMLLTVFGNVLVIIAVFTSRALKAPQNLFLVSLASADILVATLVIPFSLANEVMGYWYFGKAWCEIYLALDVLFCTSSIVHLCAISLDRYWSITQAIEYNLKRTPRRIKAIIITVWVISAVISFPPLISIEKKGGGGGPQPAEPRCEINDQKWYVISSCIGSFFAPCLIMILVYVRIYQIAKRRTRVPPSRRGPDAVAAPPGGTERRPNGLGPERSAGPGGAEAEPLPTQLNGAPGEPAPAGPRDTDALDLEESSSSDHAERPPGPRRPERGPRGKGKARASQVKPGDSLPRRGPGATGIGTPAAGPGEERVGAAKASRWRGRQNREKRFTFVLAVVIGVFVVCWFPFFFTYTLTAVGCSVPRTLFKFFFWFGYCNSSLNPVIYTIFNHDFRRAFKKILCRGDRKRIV
Sequence of UniProt P61075 (whole entry, looked up): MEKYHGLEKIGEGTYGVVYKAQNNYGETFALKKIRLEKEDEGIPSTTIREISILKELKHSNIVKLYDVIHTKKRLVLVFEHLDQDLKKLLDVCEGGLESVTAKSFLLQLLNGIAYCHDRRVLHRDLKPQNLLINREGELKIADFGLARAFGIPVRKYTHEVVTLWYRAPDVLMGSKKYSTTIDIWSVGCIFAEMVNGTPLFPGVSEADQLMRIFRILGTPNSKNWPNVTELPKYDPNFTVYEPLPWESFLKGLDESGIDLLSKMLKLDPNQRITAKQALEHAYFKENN

Set 1
Target: Calcium/calmodulin-dependent protein kinase type II subunit alpha (CAMK2A, Homo sapiens, UniProt Q9UQM7)
Sequence of UniProt Q9UQM7 (whole entry, looked up): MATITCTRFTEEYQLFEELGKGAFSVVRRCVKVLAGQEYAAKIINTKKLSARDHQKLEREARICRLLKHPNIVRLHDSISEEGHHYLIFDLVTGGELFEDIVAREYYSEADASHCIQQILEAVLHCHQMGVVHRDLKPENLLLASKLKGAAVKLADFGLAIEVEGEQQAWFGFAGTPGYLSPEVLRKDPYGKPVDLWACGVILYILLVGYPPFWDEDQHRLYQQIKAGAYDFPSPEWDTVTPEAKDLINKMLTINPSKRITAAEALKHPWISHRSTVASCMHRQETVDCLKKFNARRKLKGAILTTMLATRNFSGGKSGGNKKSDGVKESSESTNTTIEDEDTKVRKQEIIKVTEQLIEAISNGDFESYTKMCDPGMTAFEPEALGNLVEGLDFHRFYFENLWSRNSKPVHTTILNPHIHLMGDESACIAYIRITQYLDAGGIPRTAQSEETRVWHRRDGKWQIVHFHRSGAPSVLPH
Read-out: enzyme activity
Action: inhibitor
Concentration: 10 µM
CN1CC[C@@]23C=C[C@H](O)C[C@@H]2Oc2c(O)ccc(c23)C1 gave an inhibition of 13%.
For C[C@H]1CCC2N(C1)C[C@H]1C3CC4[C@@H](CC(=O)C5C[C@@H](O)CC[C@@]54C)C3CCC1[C@]2(C)O (stereo partly drawn), the inhibition was -45%.
With C=C[C@]12CN(C)[C@@H]3[C@H]4CO[C@H](C[C@H]41)[C@]1(C(=O)Nc4ccccc41)[C@@H]32 the inhibition was 1%.
CC(=O)[C@@]1(O)CC[C@H]2[C@@H]3CC=C4C[C@@H](O)CC[C@]4(C)[C@H]3CC[C@@]21C has an inhibition of 5%.

Set 2
SMILES: COC(=O)c1cc(N(C)C(=O)c2ccn3ncc(-c4ccc(C(=O)O)cc4)c3c2)ccc1Cl
For Fibroblast growth factor receptor 3 (FGFR3, Homo sapiens, UniProt P22607); enzyme activity, inhibitor: IC50 read over 30 µM.
For STE20-like serine/threonine-protein kinase (SLK, Homo sapiens, UniProt Q9H2G2); enzyme activity, inhibitor: IC50 read 11.5 µM.
For Ribosomal protein S6 kinase beta-1 (RPS6KB1, Homo sapiens, UniProt P23443); enzyme activity, inhibitor: IC50 read over 30 µM.
RAF proto-oncogene serine/threonine-protein kinase (RAF1, Homo sapiens, UniProt P04049); enzyme activity, inhibitor — IC50: over 30 µM.
For Tyrosine-protein kinase receptor UFO (AXL, Homo sapiens, UniProt P30530); enzyme activity, inhibitor: IC50 read over 30 µM.
It gave over 30 µM for IC50 (MAP kinase-activated protein kinase 2 (MAPKAPK2, Homo sapiens, UniProt P49137); enzyme activity, inhibitor).
Tyrosine-protein kinase SYK (SYK, Homo sapiens, UniProt P43405); enzyme activity, inhibitor — IC50: over 30 µM.
It gave over 30 µM for IC50 (ALK tyrosine kinase receptor (ALK, Homo sapiens, UniProt Q9UM73); enzyme activity, inhibitor).
It gave over 30 µM for IC50 (5-hydroxytryptamine receptor 2B (HTR2B, Homo sapiens, UniProt P41595); cell-free assay).
It gave 10.2 µM for IC50 (Serine-protein kinase ATM (ATM, Homo sapiens, UniProt Q13315); enzyme activity, inhibitor).
Tyrosine-protein kinase JAK3 (JAK3, Homo sapiens, UniProt P52333); enzyme activity, inhibitor — IC50: 16.5 µM.
It gave over 30 µM for IC50 (Alpha-2A adrenergic receptor (ADRA2A, Homo sapiens, UniProt P08913); cell-free assay).
For Serine/threonine-protein kinase Nek11 (NEK11, Homo sapiens, UniProt Q8NG66); enzyme activity, inhibitor: IC50 read over 30 µM.

Set 3
Structure (SMILES): COc1ccc2c(c1)/C(=C/c1cnc[nH]1)C(=O)N2
Read-out: enzyme activity
Action: inhibitor
Concentration: 0.5 µM
Relative to: control
It gave 100% for remaining activity (Serine/threonine-protein kinase PAK 4 (PAK4, Homo sapiens, UniProt O96013)).
For Serine/threonine-protein kinase pim-1 (PIM1, Homo sapiens, UniProt P11309): remaining activity read 90.8%.
It gave 98.7% for remaining activity (Ribosomal protein S6 kinase beta-2 (RPS6KB2, Homo sapiens, UniProt Q9UBS0)).
Tyrosine-protein kinase Fes/Fps (FES, Homo sapiens, UniProt P07332) — remaining activity: 97%.
For Tyrosine-protein kinase Yes (YES1, Homo sapiens, UniProt P07947): remaining activity read 82.1%.
The remaining activity was -0.369% (Cyclin-dependent kinase 5, with p35 (CDK5, Homo sapiens, UniProt Q00535)).
The remaining activity was 61.7% (Serine/threonine-protein kinase BRSK2 (BRSK2, Homo sapiens, UniProt Q8IWQ3)).

Mixed results
With CC(=O)c1c(NS(C)(=O)=O)c2cc(-c3ccc(Cl)cc3)c(-c3ccc(Cl)cc3Cl)nc2n(C)c1=O the inhibition was -2.4% (Nociceptin receptor (OPRL1, Homo sapiens, UniProt P41146); binding, radioligand binding; 10 µM).
CN([C@@H]1CCc2c(CC(=O)O)c3ccccc3n2C1)S(=O)(=O)c1ccc(F)cc1 has a remaining binding of 94% (Cyclin-dependent kinase 2 homolog (CRK2, Plasmodium falciparum, UniProt P61075); cell-free assay, competition with immobilised ligand; 1 µM).
C[C@H](NC(=O)c1cnc2n1[C@](C)(Cc1ccc(C#N)cc1)C(=O)N2c1cc(Cl)c(F)c(Cl)c1)C(=O)NC1(c2ccccn2)CC1 has an inhibition of 24.3% (5-hydroxytryptamine receptor 2C (HTR2C, Homo sapiens, UniProt P28335); binding, radioligand binding; 10 µM).

Excerpt of the above (set 2):
It gave over 30 µM for IC50 (5-hydroxytryptamine receptor 2B (HTR2B, Homo sapiens, UniProt P41595); cell-free assay).
It gave over 30 µM for IC50 (Alpha-2A adrenergic receptor (ADRA2A, Homo sapiens, UniProt P08913); cell-free assay).
For Fibroblast growth factor receptor 3 (FGFR3, Homo sapiens, UniProt P22607); enzyme activity, inhibitor: IC50 read over 30 µM.
For STE20-like serine/threonine-protein kinase (SLK, Homo sapiens, UniProt Q9H2G2); enzyme activity, inhibitor: IC50 read 11.5 µM.
